Published values pooled from the literature.
A part holds a random share of what one study measured. Positions count from the first letter of the parent shown.
Chain of UniProt P11802 (whole entry, looked up): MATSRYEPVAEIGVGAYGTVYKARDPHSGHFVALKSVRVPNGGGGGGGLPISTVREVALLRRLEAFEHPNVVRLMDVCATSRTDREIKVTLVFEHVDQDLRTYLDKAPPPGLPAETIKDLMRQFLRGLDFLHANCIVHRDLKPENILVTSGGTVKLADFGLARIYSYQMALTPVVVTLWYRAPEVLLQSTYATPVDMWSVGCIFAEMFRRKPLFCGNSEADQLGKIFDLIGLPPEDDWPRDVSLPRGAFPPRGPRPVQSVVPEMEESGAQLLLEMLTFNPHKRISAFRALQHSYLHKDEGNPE

Series 1 — observed: peptide-MHC binding; molecule type: peptide; tested at: concentration not given; quantity: binding
Target: HLA class I histocompatibility antigen, A alpha chain, allele A*80:01 (Homo sapiens, UniProt P04439)
TKDTNDNNL: inactive
MYKLNKPTK: inactive
CASSSDWFY: inactive
NSRHNAQHK: inactive
IILKALYML: inactive
LTDEQKNAV: inactive
LEMNDAPTA: inactive
LAMLVLHQV: inactive

Series 2 — target: CCNE1, cyclin fold, Cln2 fusion (human); method: yeast growth competition, sequencing; medium: yeast; notes: strong parent motif; reference: not given; direction: higher = stronger binding; quantity: normalised enrichment score
Starting sequence: viral docking peptide; TSVRRALFTGGSD; partner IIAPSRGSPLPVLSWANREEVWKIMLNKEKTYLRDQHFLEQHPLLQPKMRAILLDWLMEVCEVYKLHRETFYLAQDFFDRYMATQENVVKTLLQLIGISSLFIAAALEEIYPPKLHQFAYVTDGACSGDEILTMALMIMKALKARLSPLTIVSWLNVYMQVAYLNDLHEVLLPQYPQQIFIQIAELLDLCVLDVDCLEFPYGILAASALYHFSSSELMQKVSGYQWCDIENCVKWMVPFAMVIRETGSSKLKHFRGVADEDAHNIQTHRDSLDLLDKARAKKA
F8V: 0.206
R5K: 1.95
L7H: -0.259
G11W: 4.35
L7D: 0.199
G10S: 6.01
G11A: 5.45
S2M: 4.23

Single results of other studies
ClCC1C(CCl)[C@@]2(Cl)C(Cl)=C(Cl)[C@]1(Cl)C2(Cl)Cl (stereo partly drawn)  viability (A-375; 100 µM, 18 h): 8%
O=C1NC(=O)c2c1c1c3ccccc3n3c1c1c2c2ccccc2n1[C@H]1CC[C@@H]3O1  remaining activity (Cyclin-dependent kinase 4, with cyclin D3 (CDK4, Homo sapiens, UniProt P11802); enzyme activity, inhibitor; 0.5 µM; reference: control): 22.2%

Some of these lines once more (series 1):
NSRHNAQHK: inactive
